# Published values from different studies.
# Compare with care: the assays were run in different laboratories. Numbers after ± are the reported error.
# Chain of UniProt Q9NS66 (whole entry, looked up): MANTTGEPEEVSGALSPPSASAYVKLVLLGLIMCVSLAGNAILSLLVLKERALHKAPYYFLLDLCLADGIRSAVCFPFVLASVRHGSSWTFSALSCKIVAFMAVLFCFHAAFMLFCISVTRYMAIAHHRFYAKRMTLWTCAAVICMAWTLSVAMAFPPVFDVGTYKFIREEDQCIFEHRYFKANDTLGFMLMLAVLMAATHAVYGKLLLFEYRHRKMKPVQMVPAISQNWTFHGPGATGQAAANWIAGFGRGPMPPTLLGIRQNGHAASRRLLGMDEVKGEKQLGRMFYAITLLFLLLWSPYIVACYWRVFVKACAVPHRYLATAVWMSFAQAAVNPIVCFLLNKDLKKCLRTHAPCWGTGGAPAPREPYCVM
# Chain of UniProt Q8WU58 (whole entry, looked up): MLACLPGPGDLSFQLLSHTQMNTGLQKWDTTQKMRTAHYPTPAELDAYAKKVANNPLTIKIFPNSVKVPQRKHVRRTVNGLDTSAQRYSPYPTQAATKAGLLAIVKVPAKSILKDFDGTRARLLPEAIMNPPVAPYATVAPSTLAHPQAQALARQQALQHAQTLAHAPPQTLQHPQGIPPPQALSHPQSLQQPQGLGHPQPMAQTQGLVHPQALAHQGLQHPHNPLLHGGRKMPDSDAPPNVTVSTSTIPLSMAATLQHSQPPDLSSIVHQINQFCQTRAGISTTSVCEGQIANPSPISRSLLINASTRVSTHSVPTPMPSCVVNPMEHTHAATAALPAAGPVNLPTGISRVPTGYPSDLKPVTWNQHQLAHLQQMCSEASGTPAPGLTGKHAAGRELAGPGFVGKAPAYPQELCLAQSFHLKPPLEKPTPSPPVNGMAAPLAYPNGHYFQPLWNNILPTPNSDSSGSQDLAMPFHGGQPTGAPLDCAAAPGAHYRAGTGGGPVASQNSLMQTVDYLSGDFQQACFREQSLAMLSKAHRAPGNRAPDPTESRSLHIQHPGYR
# Chain of UniProt Q15349 (whole entry, looked up): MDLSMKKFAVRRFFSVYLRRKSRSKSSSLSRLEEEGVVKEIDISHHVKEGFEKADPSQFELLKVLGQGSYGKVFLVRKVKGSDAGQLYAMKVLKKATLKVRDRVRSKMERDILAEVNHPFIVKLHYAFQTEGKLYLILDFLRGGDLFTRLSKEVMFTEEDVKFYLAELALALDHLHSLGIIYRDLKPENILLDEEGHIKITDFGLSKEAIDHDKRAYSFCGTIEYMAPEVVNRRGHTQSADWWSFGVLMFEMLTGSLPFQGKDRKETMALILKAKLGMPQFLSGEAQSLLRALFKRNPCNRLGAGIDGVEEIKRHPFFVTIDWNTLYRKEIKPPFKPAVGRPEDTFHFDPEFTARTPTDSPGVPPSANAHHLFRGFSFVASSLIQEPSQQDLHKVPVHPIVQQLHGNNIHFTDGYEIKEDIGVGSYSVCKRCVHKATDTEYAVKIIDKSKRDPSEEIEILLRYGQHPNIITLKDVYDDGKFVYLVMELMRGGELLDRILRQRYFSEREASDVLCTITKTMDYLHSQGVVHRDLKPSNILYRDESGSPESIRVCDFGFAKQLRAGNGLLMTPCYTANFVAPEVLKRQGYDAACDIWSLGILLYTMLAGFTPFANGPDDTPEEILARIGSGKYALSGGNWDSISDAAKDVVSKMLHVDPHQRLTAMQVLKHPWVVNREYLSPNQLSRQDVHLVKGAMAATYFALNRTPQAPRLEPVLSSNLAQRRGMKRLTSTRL
SMILES,target or system,assay,test system,setting,scale,measurement,result
Cc1cccc(Cn2nc(C3CC3)c3c(NC(=O)c4cnc5cc(OCCN6CCN(C)CC6)ccn45)cccc32)n1,,measured: Lipase increased,human advanced solid tumours,"oral, dose not given, all-causality,, all doses",,adverse events incidence,31.6%
CCCCN1CCC(COC(=O)c2ccc(N)c(O[11CH3])c2)CC1,,"5-HT4 receptor binding, PET","rhesus monkey (Macaca mulatta), brain thalamus","dose not given, baseline scan, unit not given",relative to: cerebellum reference region,binding potential BPND,0.31 ± 0.07
CC(c1cncnc1)n1c(=S)[nH]c2ccc(Cl)cc2c1=O (centres unmarked),,,"mouse, plasma","intravenous, dose not given",,clearance,37.2 mL/min/kg
COc1cc2c(Oc3ccc4[nH]c(C)cc4c3F)ccnc2cc1OCC1(N)CC1,,,paediatric refractory sarcoma patients,12 mg,,weight loss incidence,18.2%
C[C@@H](O)[C@@H](CO)NC(=O)[C@@H](CCCNC(=N)N)NC(=O)[C@@H]1CCCN1C(=O)[C@@H]1CSSC[C@H](NC(=O)[C@H](Cc2ccccc2)NC(=O)CN2CCN(CC(=O)O)CCN(CC(=O)O)CCN(CC(=O)O)CC2)C(=O)N[C@@H](Cc2ccc(O)cc2)C(=O)N[C@@H](Cc2ccccc2)C(=O)N[C@@H](CCC(N)=O)C(=O)N[C@@H](CC(N)=O)C(=O)N1 [gallium-68 labelled],,,"healthy Wistar rat, large intestine","intravenous, 8 MBq, 30 min, individual animals",,tissue uptake,0.23 %ID/g
CN1CC[C@@H](c2c(O)cc(O)c3c(=O)cc(-c4ccc(C(F)(F)F)cc4Cl)oc23)[C@@H]1CO,,measured: Neutropenia,relapsed AML,"oral, 200 mg, grade 3-4, intermittent dosing",,patients with adverse event,20%
Clc1ccc(-c2ccccc2)cc1,,,"Sprague-Dawley rat female, serum","inhalation, 35 µg/rat, 24 h",,blood urea nitrogen,11 ± 0.05 mg/dL
C=C(CN(C(=O)c1c(C(F)F)nn(C)c1F)C1CC1)c1ccc(Cl)cc1Cl,,static acute toxicity test,zebrafish (Brachydanio rerio),"1.20 mg a.i./L, 24 h",,mortality,30%
CC(C)(O)c1cc(Nc2cc(Oc3cn(C4CC4)nc3C3CCOCC3)ccn2)ccn1,,Headache,"patients with advanced cancer, Japanese cohort","oral, dose not given, grade ≥3",,treatment-related adverse events,0%
Oc1ccc2c3c1O[C@H]1[C@@H](O)CC[C@@]4(O)[C@@H](C2)N(CC2CCC2)CC[C@]314,"Probable G-protein coupled receptor 173 (GPR173, Homo sapiens, UniProt Q9NS66)","β-arrestin recruitment, TANGO luminescence, measured: GPR173",,concentration not given,relative to: basal luminescence,log2 fold change,0.5
CCOC(=O)C1=C[C@@H](OC(CC)CC)[C@H](NC(C)=O)[C@@H](N)C1,,,"Sprague-Dawley rat male, plasma and urine","oral, 30 mg/kg",,metabolic clearance,98.8 mL/h
CC[C@H](C)[C@H](NC(=O)[C@H](Cc1ccccc1)NC(=O)[C@H](CCC(=O)O)NC(=O)[C@H](CCCNC(=N)N)NC(=O)[C@H](C)NC(=O)[C@H](C)NC(=O)[C@H](CCC(N)=O)NC(=O)[C@H](CCC(=O)O)NC(=O)[C@H](CCC(=O)O)NC(=O)[C@H](CC(C)C)NC(=O)[C@H](Cc1ccc(O)cc1)NC(=O)[C@H](CO)NC(=O)[C@H](CO)NC(=O)[C@@H](NC(=O)[C@H](CC(=O)O)NC(=O)[C@H](CO)NC(=O)[C@@H](NC(=O)[C@H](Cc1ccccc1)NC(=O)[C@@H](NC(=O)CNC(=O)[C@H](CCC(=O)O)NC(=O)[C@H](C)NC(=O)CCc1c[nH]cn1)[C@@H](C)O)[C@@H](C)O)C(C)C)C(=O)N[C@@H](C)C(=O)N[C@@H](Cc1c[nH]c2ccccc12)C(=O)N[C@@H](CC(C)C)C(=O)N[C@H](C(=O)N[C@@H](CCCNC(=N)N)C(=O)NCC(=O)N[C@@H](CCCNC(=N)N)C(=O)N[C@@H](CCCCNC(=O)COCCOCCNC(=O)COCCOCCNC(=O)CC[C@H](NC(=O)CCCCCCCCCCCCCCCCC(=O)O)C(=O)O)C(=O)NCC(=O)NCC(=O)N[C@@H](CO)C(=O)N[C@@H](CCCCNc1c(NCCCCCN(O)C(=O)CCC(=O)NCCCCCN(O)C(=O)CCC(=O)NCCCCCN(O)C(C)=O)c(=O)c1=O)C(=O)O)C(C)C [zirconium-89 labelled],,ex vivo gamma counting,"rat, colon content","subcutaneous, 3 nmol/kg, 4 h, added: [89Zr]-labelled peptide",,tissue uptake,0.01 %ID/g
CO[C@H]1C[C@@H]2CC[C@@H](C)[C@@](O)(O2)C(=O)C(=O)N2CCCC[C@H]2C(=O)O[C@H]([C@H](C)C[C@@H]2CC[C@@H](OC(=O)NCCOCCOCCOCCOCCOCCOCCOCCOCCC(=O)N3CCc4cc(Cn5nc(-c6ccc7oc(N)nc7c6)c6c(N)ncnc65)ccc4C3)[C@H](OC)C2)C[C@@H](O)[C@H](C)/C=C(\C)[C@@H](O)[C@@H](OC)C(=O)[C@H](C)C[C@H](C)/C=C/C=C/C=C/1C,,,patients with advanced solid tumours,"intravenous, 16 mg weekly, grade 3 or higher",,decreased appetite leading to dose reduction,0%
C[C@@H](NC(=O)N1C(=O)[C@H](Cc2ccnc(N)c2)[C@H]1C(=O)O)C1CCCCC1,,,healthy adult Chinese volunteers,"continuous intravenous infusion, 1.5 mg/kg/h, 5-day infusion, CTCAE 5.0 grading",,incidence of elevated neutrophil,0%
COc1ccc(N2C(=O)N(c3c(C)cccc3Cl)Cc3cnc(Nc4ccc(C5CCN(C)CC5)cc4OC)nc32)nc1,"Ribosomal protein S6 kinase alpha-2 (RPS6KA2, Homo sapiens, UniProt Q15349)","kinase activity, inhibitor",,"0.5 µM, RSK3",,inhibition,10%
C[C@]1(CO)Cc2ncn(-c3ccc(C#N)c(Cl)c3)c2C(=O)O1,,,human,10 mg single dose,,subjects with drug-related dysgeusia,0%
COc1cc(Nc2ncc(F)c(Nc3ccc4c(n3)NC(=O)C(C)(C)O4)n2)cc(OC)c1OC,P2X purinergic receptor,,,,,IC50,> 10 µM
N#C[C@@]1(n2ccc(N)nc2=O)O[C@H](CO)[C@@H](O)[C@H]1O,,,"CD-1 mouse, plasma","intravenous, 15 mg/kg",,MRT,1.02 h
C[C@H]1CN(c2n[nH]c3nc(N[C@H]4CC[C@H](NS(=O)(=O)CCC(F)(F)F)CC4)ncc23)CCO1,"Protein FAM222B (Homo sapiens, UniProt Q8WU58)","competitor, Kinobeads competition","HEK293, K562, placenta extract",4 µM,relative to: vehicle,remaining binding,24%
CC[C@H](C)[C@@H]1NC(=O)[C@@H]2CCCN2C(=O)[C@H](CC(C)C)NC(=O)[C@H](CC(C)C)NC(=O)CNC(=O)[C@@H](NC(=O)[C@@H](NC(=O)[C@H](CC(=O)O)NC(=O)CNC(=O)[C@@H](NC(=O)[C@H](C)NC(=O)CNC(=O)[C@H](CCCCN)NC(=O)[C@H](CC(C)C)NC(=O)[C@H](CC(C)C)NC(=O)[C@H](CCCCN)NC(=O)CNC(=O)[C@@H](NC(=O)[C@@H](N)CC(C)C)C(C)C)C(C)C)C(C)C)CSSC[C@@H](C(=O)O)NC1=O,,"RNA-seq, measured: Ighg2b mRNA","mouse traumatic brain injury, frontal cortex and hippocampus",dose not given,relative to: TBI plus compound vs TBI,log2 fold change,-3.07
O=C(O)CNCP(=O)(O)O,,,whole cow milk,20 nM nominal,,dose fraction in skim milk,99.1%
C[C@H](c1ccccc1)n1cncc1C(=O)OCCC(=O)O,,measured: metabolite,Sprague-Dawley rat,"intravenous infusion, dose not given, 60 min after stopping infusion",,blood concentration decrease,30%
COc1ccnc(C(=O)N[C@H]2COC(=O)[C@H](Cc3ccccc3)[C@@H](OC(=O)C(C)C)[C@H](C)OC2=O)c1OCOC(=O)C(C)C,,"maternal toxicity, body weight loss","New Zealand white rabbit, female",,,NOAEL,177 mg/kg/day
COc1cccc(Oc2ccccc2NC(=O)CNC(=O)c2cccc3ccccc23)c1,,,"esterase-deficient SCID mice, male","oral, 100 mg/kg/day, 14 days, toxicity study",,unconjugated bilirubin,0.1 mg/dL
O=C(O)C[C@H](NC(=O)[C@H](CC(=O)O)NC(=O)[C@H](CC(=O)O)NC(=O)[C@H](CC(=O)O)NC(=O)[C@H](CC(=O)O)NC(=O)[C@H](CC(=O)O)NC(=O)[C@H](CC(=O)O)NC(=O)[C@H](CC(=O)O)NC(=O)[C@H](CC(=O)O)NC(=O)[C@H](CC(=O)O)NC(=O)[C@H](CC(=O)O)NC(=O)[C@H](CCCCNC(=O)c1ccc(C(=O)NCCOCCOB2BBBBBB3BBBB3B2)cc1)NC(=O)CN1CCN(CC(=O)O)CCN(CC(=O)O)CCN(CC(=O)O)CC1)C(=O)O [gallium-67 labelled],,gamma counting,"ddY mouse, male, 6 weeks old, lung","intravenous, 37 kBq, 10 min",,tissue uptake,2.83 %ID/g
CNC(=O)c1c(N(C)N=O)ncn1C,Salmonella typhimurium,plate incorporation,"TA1537, water","5000 µg/plate, without S9",,revertant colonies per plate,8 ± 2
CC(C)(C(=O)NC1C2CC3CC1CC(C(N)=O)(C3)C2)N1CCN(c2ccc(C(F)(F)F)cn2)CC1 (centres unmarked),,,"human, plasma","2 mg once daily, 5 days, median",,dose-normalised free Cmax,0.159 (ng/mL)/mg
O=C1NC(=O)C(c2ccccc2)(c2ccccc2)N1,,PAMPA,pre-coated trilayer membrane,"200 µM, 5 h, pH 7.4, acceptor plate, PBS",,acceptor concentration,24 ± 1.5 µM
O=C(Nc1ccccc1)C1CCN(C(=O)Oc2cccnc2)CC1,,Bond-Lader VAS,healthy women,60 mg,"relative to: pre-dose baseline, direction not given",change in well-coordinated–clumsy score,-1.6
CC(C)C[C@@H]1NC(=O)[C@H](CC(C)C)NC(=O)[C@H](Cc2c[nH]c3ccccc23)NC(=O)[C@H](CO)NC(=O)[C@H](Cc2c[nH]c3ccccc23)NC(=O)[C@@H]2CCCN2C(=O)[C@H](CC(C)C)NC(=O)[C@H](Cc2c[nH]cn2)NC(=O)[C@@H]2CCCN2C(=O)[C@H](CC(N)=O)NC(=O)[C@H](C)NC(=O)[C@H](Cc2ccc(O)cc2)NC(=O)[C@H](CS)NC(=O)[C@H](CCCCNC(=O)CN2CCN(CC(=O)O)CCN(CC(=O)O)CCN(CC(=O)O)CC2)NC1=O [lutetium-177 labelled],,OLINDA dosimetry,"BALB/c mice, liver","37 MBq, 7 days",,total nuclear transformations,9050 MBq-s
CCC[C@@](N)(CO)CCc1ccc(OCCCCCC(C)C)cc1,,,"hound dogs, male","intravenous, 0.25 mg/kg, geometric mean",,AUC(0-last),0.413 µM·h
Cn1c(-c2ccc(C(N)=O)cc2F)nnc1C(C)(C)Oc1c(F)cc(Cl)cc1F,,,human,"oral, dose not given, single ascending dose all doses",,subjects with musculoskeletal TEAE,5.6%
Clc1cc2c(cc1Cl)Oc1cc(Cl)c(Cl)cc1O2,,"RNA-Seq, measured: Cyp2e1","female Sprague-Dawley rat, liver",dose not given,relative to: vehicle,mRNA level,3.4 fold
C[C@H]1CN(C(=O)CC#N)[C@]12CCN(c1ncnc3[nH]ccc13)C2,,,rat male,"oral, 3 mg/kg repeated daily, 6 months, repeated-dose toxicity study",,Cmax at NOAEL,390 ng/mL
CCN1[C@@H](C(=O)NC23CCC(C(=O)O)(CC2)CC3)[C@H](c2cccc(Cl)c2F)[C@]2(C(=O)Nc3cc(Cl)ccc32)C12CCCCC2,,,patients with advanced solid tumours,"oral, 200 mg",,Neutropenia incidence,0%
CC(C)(C)c1cc(-n2nc3ccccc3n2)c(O)c(C(C)(C)C)c1,,exposure assessment,"human, age 16-21 years",cream,,mean daily dermal uptake,1.54 ng/kg body weight/day
C=C(C)[C@@H]1CCC(C)=C[C@H]1c1c(O)cc(CCC)c(C(=O)O)c1O,,LC-MS/MS,"Scn1a+/− mice, plasma","intraperitoneal, 100 mg/kg, after hyperthermia protocol",,plasma concentration,79000 ± 10000 ng/mL
Cn1cncc1-c1c(F)cncc1NC(=O)c1c(N)nn2cc(F)cnc12,,,human patients,"oral, 80 mg once daily",,grade ≥3 neutrophil decrease incidence,0%
C[C@@H](O)[C@H](NC(=O)[C@@H]1CSSC[C@H](NC(=O)[C@@H](Cc2ccccc2)NC(=O)CN2CCN(CC(=O)[O-])CCN(CC(=O)[O-])CCN(CC(=O)[O-])CC2)C(=O)N[C@@H](Cc2ccc(O)cc2)C(=O)N[C@H](Cc2c[nH]c3ccccc23)C(=O)N[C@@H](CCCCN)C(=O)N[C@@H]([C@@H](C)O)C(=O)N1)C(=O)O.[177Lu+3],MEC1 treated with 200 µM zebularine,gamma counter,serum-free RPMI,"120 min, 37 °C",,uptake,1.05%
CCCSc1ccc2nc(NC(=O)OC)[nH]c2c1,,,"mouse, blood","oral, 50 mg/kg, tolerability, mean",,aspartate aminotransferase,52.7 U/L
CCc1ccc(CC/C=C/c2ccc3c(c2)C(=O)CC3)cc1,,,"Sprague-Dawley rat, female, serum","oral, 30 mg/kg/day, 14 days",,creatinine,25.7 µM
O=S(=O)(Nc1ccccc1)c1ccc(NC(=S)Nc2ccccc2)cc1,,,"mouse, female, blood","oral, 5 mg/kg daily, 14 days",,mean platelet volume,4.93 fL
COc1ccc(-c2c(-c3ccc(C#N)c(F)c3)nc(N3CCC(N)CC3)n(C)c2=O)cc1F,,measured: Diarrhea,relapsed/refractory marginal zone lymphoma patients,"oral, 60 mg, any grade, dose expansion",,treatment-related adverse event incidence,0%
OC[C@H]1OC(O)[C@H]([18F])[C@@H](O)[C@@H]1O (some centres unmarked),,"PET/CT, bi-exponential fit","Sprague-Dawley rat, nasal cavity",intranasal,relative to: dose,nasal clearance amplitude A,16.3%
CC(C)[C@@H]1NC(=O)CNC(=O)[C@H](CC(N)=O)NC(=O)[C@H](CCCNC(=N)N)NC(=O)[C@H](Cc2ccc(O)cc2)NC(=O)[C@H](C(C)C)NC(=O)[C@@H](NC(=O)[C@@H](NC(=O)[C@H](CC(N)=O)NC(=O)[C@H](Cc2c[nH]c3ccccc23)NC(=O)[C@H](C)NC(=O)[C@H](Cc2ccccc2)NC(=O)CN)C(C)C)CSSC[C@@H](C(=O)N[C@@H](Cc2c[nH]cn2)C(=O)N[C@@H](CCCNC(=N)N)C(=O)N[C@@H](CCCNC(=N)N)C(=O)N[C@@H](C)C(=O)N[C@@H](CC(N)=O)C(N)=O)NC(=O)[C@H](C(C)C)NC(=O)[C@H](CCCNC(=N)N)NC1=O,,"circular dichroism, measured: Random-coil",PBS,"80 µM, pH 7.4, added: LPS 1 µM",,secondary structure content,33.2%
CC(=O)c1c(C)c2cnc(Nc3ccc(C4CCN(CCS(C)(=O)=O)CC4)cn3)nc2n(C2CCCC2)c1=O,,,conscious beagle dog,"oral, 3, 6, 15 mg/kg",,"cardiovascular, respiratory, temperature",no effect
N=C(N)NCCC[C@@H](NC(=O)[C@@H](N)Cc1ccccc1)C(=O)N[C@@H](Cc1ccccc1)C(=O)N[C@@H](CCCCN)C(N)=O,,,"early Huntington's disease patients, plasma","subcutaneous, 25 mg, day 1, median",,lag time,0 h
